Assay results of several laboratories.
± gives the spread as reported.

SMILES | cell line | test | system | setting | how to read | quantity | result
CC(=O)CCCCn1c(=O)c2c(ncn2C)n(C)c1=O | PH5CH8 hepatocytes | high-content cell count | – | 72 h, oleate lipid loaded | – | CC50 | > 10 µM
CC(=O)Nc1cccc(-n2c(=O)n(C3CC3)c(=O)c3c(Nc4ccc(I)cc4F)n(C)c(=O)c(C)c32)c1 | NCI-H2087 (BRAF L597V) | – | – | 6.25 nM, 72 h, unit not given | relative to: DMSO | viability | 0.523
COC[C@@H](CC(C)C)NC(=O)c1ccc(C)c(C)c1 | primary human lymphocytes | – | – | 110 µg/mL, 20 h | – | mitotic index | 8.5
Cc1ncc([N+](=O)[O-])n1CCO | LMH chicken hepatoma | – | – | – | – | CC50 | 199 µM
O=c1c2cc(O)c(O)cc2oc2cc(O)c([C@@H]3O[C@H](CO)[C@@H](O)[C@H](O)[C@H]3O)c(O)c12 | BEAS-2B | enzyme activity, inducer, fluorogenic substrate imaging | – | 10 µM, 24 h | relative to: control | CYP1A1 induction | 0.78 fold
C[C@H]1[C@H](OC(=O)CCC(=O)O)O[C@@H]2O[C@@]3(C)CC[C@H]4[C@H](C)CC[C@@H]1[C@@]24OO3 | human primary coronary endothelial cells | cell viability | – | – | – | highest non-toxic concentration | > 50 µM
CN(C)C/C=C/C(=O)Nc1ccc(C(=O)Nc2cccc(Nc3ncc(Cl)c(-c4c[nH]c5ccccc45)n3)c2)cc1 | PH5CH8 hepatocytes | high-content cell count | – | 72 h | – | CC50 | 0.034 µM
Cc1ccc(-n2sc3ccccc3c2=O)cc1 | HIV-1 Ba-L-infected human monocyte-derived macrophages | – | – | 7 d | – | CC50 | > 90 µM
Cc1c(C)c2c(c(C)c1O)CCC(C)(COc1ccc(CC3SC(=O)NC3=O)cc1)O2 (stereo not drawn) | THLE-2 transduced with Ad-UGT1A4 | cytotoxicity | – | 48 h | – | IC50 | 120 ± 11 µM
C[C@H]1[C@@H](O)O[C@@H]2O[C@@]3(C)CC[C@H]4[C@H](C)CC[C@@H]1[C@@]24OO3 | MV4-11 cells | CellTox Green | – | 24 h | – | lowest cytotoxic concentration | 1 µM
c1ccc2[nH]ccc2c1 | uninfected HCT-8 | cytotoxicity, Hoechst nuclei count | – | – | – | EC50 | 3720 µM
CC(ONC(=O)c1cc(C(F)(F)F)cc(C(F)(F)F)c1)C(=O)Nc1ccc(Cl)cc1 (stereo not drawn) | PH5CH8 hepatocytes | high-content cell count | – | 72 h | – | CC50 | > 10 µM
O=c1ncn2nc(Sc3ccc(F)cc3F)ccc2c1-c1c(Cl)cccc1Cl | iCell cardiomyocytes hiPSC-derived | CellTiter-Glo | – | concentration not given, 24 h | relative to: vehicle | ATP level | 95.4%
O=C1CCc2ccccc2O1 | PH5CH8 hepatocytes | high-content cell count | – | 72 h, oleate lipid loaded | – | CC50 | > 10 µM
Cc1c(C(=O)O)ccc2c3n(nc12)[C@@H]1[C@H](C3)N(CC2CC2)[C@@]2(C(=O)Nc3cc(Cl)ccc32)[C@H]1c1cccc(Cl)c1F | human bone marrow megakaryocyte progenitors | megakaryocyte colony formation | collagen-based medium with cytokines | 10 to 12 days | – | IC90 | 0.119 µM
CC(C)=CCc1cc2c(cc1O)O[C@H](c1ccc(O)cc1)CC2=O | BEAS-2B | enzyme activity, inducer, fluorogenic substrate imaging | – | 10 µM, 24 h | relative to: control | CYP1A1 induction | 0.78 fold
Cc1cnc(Nc2ccc(OCCN3CCCC3)cc2)nc1Nc1cccc(S(=O)(=O)NC(C)(C)C)c1 | iCell cardiomyocytes hiPSC-derived | CellTiter-Glo | – | concentration not given, 24 h | relative to: vehicle | ATP level | 99.4%
COc1cccc(-c2n[nH]c(SCc3ccccn3)n2)c1OC | CHO-WBL | – | – | 200 µg/mL, 3 h, together with: rat liver S9 | – | micronuclei per binucleated cell | 0.025
CCCS(=O)(=O)Oc1ccc(C=NNC(=O)CSc2nc3c(C)cccc3c(=O)n2-c2ccccc2)cc1OC | BJ1 | MTT | – | 100 µM | – | cytotoxicity | 52.4 ± 3.58%
COc1cc(O)cc2c1C(=O)C[C@@H](c1ccccc1)O2 | BEAS-2B | enzyme activity, inducer, fluorogenic substrate imaging | – | 10 µM, 24 h | relative to: control | CYP1A1 induction | 1.11 fold
Cn1cnc([N+](=O)[O-])c1Sc1ccccc1C(=O)NCCn1ccc(=O)c2cc3c(cc21)OCO3 | PHA-P-stimulated PBMC pooled | cytotoxicity, XTT | – | 7 days | – | TC50 | > 100 µM

SMILES | cell line | test | system | setting | how to read | quantity | result
CC(C)C(=O)Nc1ccc([N+](=O)[O-])c(C(F)(F)F)c1 | THLE-2 transduced with Ad-UGT1A4 | cytotoxicity | – | 48 h | – | IC50 | 32 ± 3.8 µM
CCCC(=O)OCSc1ccccc1C(=O)NCCn1ccc(=O)c2cc(F)ccc21 | PHA-P-stimulated PBMC pooled | cytotoxicity, XTT | – | 7 days | – | TC50 | > 100 µM
CC(C)=CC[C@]12Oc3cc(O)c([C@H]4C=C(C)C[C@H](c5ccc(O)cc5O)[C@H]4C(=O)c4ccc(O)cc4O)c(O)c3C(=O)[C@@]1(O)Oc1cc(O)ccc12 | BEAS-2B | enzyme activity, inducer, fluorogenic substrate imaging | – | 10 µM, 24 h | relative to: control | CYP1A1 induction | 0.89 fold
COc1ccc(-c2nn(-c3ccccc3)cc2C=Nc2c(N)nc(S)nc2O)cc1 | CCRF-CEM | cytotoxicity, differential nuclear staining | – | 48 h | – | CC50 | 18.1 ± 0.96 µM
Cc1cccc2cc[nH]c12 | uninfected HCT-8 | cytotoxicity, Hoechst nuclei count | – | – | – | EC50 | 1860 µM
COc1cc(-c2oc3cc(O)cc(O)c3c(=O)c2O)ccc1O | BEAS-2B | enzyme activity, inducer, fluorogenic substrate imaging | – | 10 µM, 24 h | relative to: control | CYP1A1 induction | 0.96 fold
Cc1cc(C(=O)NC(C)(C)COc2cccc3c2C(N)=NS(=O)(=O)N3)cc(C)n1 | human peripheral blood lymphocytes | CBPI, preliminary test | – | 6 µg/mL, 4 h | relative to: vehicle control | cytotoxicity | 5%
N#Cc1ccc2cc[nH]c2c1 | uninfected HCT-8 | cytotoxicity, Hoechst nuclei count | – | – | – | EC50 | 1100 µM
O=C1c2c(O)cc(O)cc2O[C@H](c2cc(O)c(O)c(O)c2)[C@H]1O | BEAS-2B | enzyme activity, inducer, fluorogenic substrate imaging | – | 10 µM, 24 h | relative to: control | CYP1A1 induction | 1.54 fold
CC(C)(c1ccc(O)cc1)c1ccc(O)cc1 | HepG2 spheroids, dissociated | annexin V-FITC/PI flow cytometry | – | 40 µM, 24 h | – | viable cells | ~80%
C=C[C@@H]1C[C@]1(NC(=O)[C@@H]1C[C@@H]2CN1C(=O)[C@H](C(C)(C)C)NC(=O)O[C@@H]1C[C@H]1CCCCCc1nc3ccc(OC)cc3nc1O2)C(=O)NS(=O)(=O)C1CC1 | plated human hepatocytes | – | – | 0.5 µM, 60 min, together with: 0.2% HSA | – | unbound fraction in hepatocytes | 0.0173
Cc1c[nH]c2ccccc12 | uninfected HCT-8 | cytotoxicity, Hoechst nuclei count | – | – | – | EC50 | 1630 µM
CCCC(=O)OCSc1ccccc1C(=O)NCCn1ccc(=O)c2cc(C)ccc21 | PHA-P-stimulated PBMC pooled | cytotoxicity, XTT | – | 7 days | – | TC50 | > 100 µM
COc1ccc(-c2oc3c(CC=C(C)C)c(O)cc(O)c3c(=O)c2O)cc1 | BEAS-2B | enzyme activity, inducer, fluorogenic substrate imaging | – | 10 µM, 24 h | relative to: control | CYP1A1 induction | 1.18 fold
N#Cc1cccc2[nH]ccc12 | uninfected HCT-8 | cytotoxicity, Hoechst nuclei count | – | – | – | EC50 | 1330 µM
COc1cccc(CN(CCN(CCN(C)C)Cc2ccccc2)Cc2ccccc2)c1 | WI-38 | propidium iodide flow cytometry | – | 15 µM, 21 h | – | apoptotic cells | 9.6%
COc1ccc(N/N=C/c2ccc(-c3ccc(/C=N/Nc4ccc(OC)cc4)cc3)cc2)cc1 | BEAS-2B | – | – | 15.5 µg/mL | – | cytotoxicity | not toxic
C=C(C)[C@@H]1CC[C@]2(C(=O)O)CC[C@]3(C)[C@H](CC[C@@H]4[C@@]5(C)CC[C@@H](O)C(C)(C)[C@@H]5CC[C@]43C)[C@@H]12 | BEAS-2B | enzyme activity, inducer, fluorogenic substrate imaging | – | 10 µM, 24 h | relative to: control | CYP1A1 induction | 0.83 fold
Oc1cccc2[nH]ccc12 | uninfected HCT-8 | cytotoxicity, Hoechst nuclei count | – | – | – | EC50 | > 10000 µM
Cc1cccc(CNC(=O)c2cn(CCNC(=O)c3ccccc3Sc3c([N+](=O)[O-])ncn3C)c3cc4c(cc3c2=O)OCO4)n1 | PHA-P-stimulated PBMC pooled | cytotoxicity, XTT | – | 7 days | – | TC50 | > 100 µM
CO[C@@H]1[C@H](OC(=O)/C=C/C=C/C=C/C=C/C(=O)O)CC[C@]2(CO2)[C@H]1[C@@]1(C)O[C@@H]1CC=C(C)C | LMH chicken hepatoma | – | – | – | – | CC50 | 335 µM
